Experimental data collected from several papers.
Protocols differ between the studies behind these lines. ± gives the spread as reported.

The ED50 of `C[C@]12CC[C@H](O)C[C@@H]1CC[C@@H]1[C@@H]2CC[C@]2(C)[C@@H]([N+](=O)[O-])CC[C@@H]12` is reported as 89.4 mg/kg (protection against pentylenetetrazol seizures; male NIH Swiss mice; intraperitoneal, 15 min before test, added: pentylenetetrazol 80 mg/kg s.c.).
With `COc1cc(CCNCc2ccccc2O)c(OC)cc1C#N` the ED50 was 0.53 mg/kg (male C57BL/6J mice; subcutaneous, 30 min session).
`C[C@@]1(O)CC[C@@]2(C)[C@@H](CC[C@@H]3[C@@H]2CC[C@]2(C)[C@@H]([N+](=O)[O-])CC[C@@H]32)C1` gave an ED50 of 10 mg/kg (protection against pentylenetetrazol seizures; male NIH Swiss mice; intraperitoneal, 15 min before test, added: pentylenetetrazol 80 mg/kg s.c.).
The ED50 of `CCC(C(=O)c1ccc2c(c1)OCO2)N(C)C` (stereo not shown) is reported as 17.6 ± 1.6 mg/kg (locomotor activity, measured: total distance traveled; C57BL/6J mice (male); subcutaneous).
For `CN1CC[C@]23c4c5ccc(O)c4O[C@H]2[C@@H](O)C=C[C@H]3[C@H]1C5`, the ED50 was 4.2 ± 0.6 mg/kg (B6SJL mice; subcutaneous).
With `CN1CC[C@]23c4c5ccc(O)c4O[C@H]2c2[nH]c4ccccc4c2C[C@@]3(O)[C@H]1C5` the ED50 was 8.8 mg/kg (anti-hyperalgesia, von Frey; ICR mice, paw incision model; s.c., 1 h post-dose, single agent).
`CCCC(NC)C(=O)c1ccc2c(c1)OCO2` (racemic) has an ED50 of 2.79 ± 0.29 mg/kg (locomotor activity; C57BL/6J mice, male; subcutaneous, total distance travelled).
`CN(C)C(=O)C(CCN1CCC(O)(c2ccc(Cl)cc2)CC1)(c1ccccc1)c1ccccc1` has an ED50 of 3.2 mg/kg (anti-hyperalgesia, von Frey; ICR mice, paw incision model; s.c., 1 h post-dose, single agent).
For `CCNC(CC)C(=O)c1ccc2c(c1)OCO2` (stereo not shown), the ED50 was ~2 mg/kg (locomotor activity, measured: total distance traveled; C57BL/6J mice (male); subcutaneous).
`CCCCCn1cc(C(=O)C2C(C)(C)C2(C)C)c2ccccc21` gave an ED50 of 7.4 µmol/kg (Δ9-THC discrimination substitution; C57BL/6J male mice; ip, 30 min pre-session, added: trained on 5.6 mg/kg Δ9-THC).

A few entries again:
The ED50 of `CCC(C(=O)c1ccc2c(c1)OCO2)N(C)C` (stereo not shown) is reported as 17.6 ± 1.6 mg/kg (locomotor activity, measured: total distance traveled; C57BL/6J mice (male); subcutaneous).
For `CN1CC[C@]23c4c5ccc(O)c4O[C@H]2[C@@H](O)C=C[C@H]3[C@H]1C5`, the ED50 was 4.2 ± 0.6 mg/kg (B6SJL mice; subcutaneous).
